Measurements collected from several papers.
Every numbered part comes from another study and shows a few of its results, in no order. Values joined by “and” are separate records of one study, mostly repeats; a detail may differ.

Study 1 — organism: Cryptosporidium parvum; technique: time-kill; cell line: HCT-8; strain: nanoluciferase-expressing; relative to: DMSO control; endpoint: luminescence remaining
SMILES: CNC(=O)c1ccc(-c2cnn3ccc(C(=O)N(C)c4ccc(Cl)c(C(=O)OC)c4)cc23)cc1
2.222 µM, 48 h: 11.2% and 9.99%
0.02743 µM, 72 h: 13.5% and 8.52%
0.2469 µM, 4 h: 94.7% and 91%
0.02743 µM, 8 h: 77.6% and 92.8%
0.00102 µM, 48 h: 119% and 89.3%

Study 2 — cell line: mouse MPNST tumor cells; technique: high-content nuclear imaging; item: cell number; concentration: 10 µM; time: 12 h; setting: mean of 2 replicates; relative to: plate mean; direction: higher = more cells; endpoint: nuclei count
COC(=O)N1CCN(C(=O)Cc2ccc(Cl)c(Cl)c2)C(CN2CCCC2)C1 (stereo not shown): 0.915 z-score
NCCc1cn(S(=O)(=O)c2c(Cl)nc3sccn23)c2ccccc12: -6.12 z-score
CCC1(C)CC(=O)NC(=O)C1: 1.98 z-score
CCC1(c2cccc(O)c2)CCCCN(C)C1 (stereo not shown): 1.69 z-score and 1.67 z-score
COc1cc(C(=O)N2CC[C@@H](O)[C@@H](N)C2)cc2nc(-c3cc4ccccc4n3CC3CC3)n(C)c12: -4.13 z-score
COC(=O)C=CC(=O)NC1CCC2(O)C3Cc4ccc(O)c5c4C2(CCN3CC2CC2)C1O5 (stereo not shown): -1.95 z-score

Study 3 — effect on: cell-free assay; concentration: 10 µM; endpoint: inhibition
Target: Sodium-dependent dopamine transporter (SLC6A3, Homo sapiens, UniProt Q01959)
Chain of UniProt Q01959 (whole entry, looked up): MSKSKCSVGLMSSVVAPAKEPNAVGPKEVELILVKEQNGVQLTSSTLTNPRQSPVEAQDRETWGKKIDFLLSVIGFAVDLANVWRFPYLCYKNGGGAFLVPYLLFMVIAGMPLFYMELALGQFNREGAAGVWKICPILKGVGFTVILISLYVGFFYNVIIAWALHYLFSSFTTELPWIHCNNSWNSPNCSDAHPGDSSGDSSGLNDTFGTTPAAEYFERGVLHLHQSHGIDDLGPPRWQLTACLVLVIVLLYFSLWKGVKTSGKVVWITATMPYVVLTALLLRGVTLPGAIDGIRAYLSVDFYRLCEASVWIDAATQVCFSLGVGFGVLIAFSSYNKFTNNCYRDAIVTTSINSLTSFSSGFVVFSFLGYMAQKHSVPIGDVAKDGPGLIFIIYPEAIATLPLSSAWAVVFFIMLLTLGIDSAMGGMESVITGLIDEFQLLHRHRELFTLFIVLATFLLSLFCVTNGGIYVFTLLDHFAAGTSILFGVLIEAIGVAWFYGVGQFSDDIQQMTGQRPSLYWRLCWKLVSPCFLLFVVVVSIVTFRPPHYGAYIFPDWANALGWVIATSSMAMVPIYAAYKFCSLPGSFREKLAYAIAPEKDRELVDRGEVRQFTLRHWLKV
COc1ccc2cc(OCC3(C(=O)O)CN(C(=O)c4ccc(F)cc4)C3)ccc2c1: -14.5%
CN(C)c1ncnc(-c2ccc3nc(Nc4cc(CN5CCN(C(=O)CC(F)(F)F)CC5)ccn4)[nH]c3c2)c1Cl: -19%
N#CC1(c2ccccn2)CCN(Cc2cc(C(=O)O)c(=O)n3ccccc23)CC1: -7.27%
O=C(NCCCC1CCCCC1)c1ccc(CNC(=O)c2cnn(-c3ccccc3)c2C(F)(F)F)cc1: 22.3%
CC(=O)Nc1c(C(C)=O)c(=O)n(C)c2nc(-c3ccc(Cl)cc3Cl)c(-c3ccc(Cl)cc3)cc12: 36.4%
N#Cc1ccc(Nc2ccc3[nH]c(=O)[nH]c3c2)c(Cl)c1: 14%
CN1CCN(C(=O)C(C)(C)c2ccc(C(=O)Nc3cn4cc(-c5cc(C(C)(C)C)cc(C(C)(C)C)c5)ccc4n3)cc2)CC1: -0.51%
Cc1ncc(-c2cc(Cl)ccc2F)cc1-n1c(=O)n(CC(N)=O)c2ccccc21: -4.34%
CN(c1ccnc(CNc2nc(Nc3ccc4c(c3)CC(=O)N4)ncc2C(F)(F)F)n1)S(C)(=O)=O: -11.6%
Nc1cnc(N2CCc3cc(S(=O)(=O)Nc4c(F)cc(Cl)cc4F)cc(N4CCCC4=O)c32)nc1: 20.2%
Cc1cc(Nc2nccc(C)n2)cc(-c2cnc([C@@]3(O)CC[C@H](C(=O)O)C(C)(C)C3)s2)c1: 39.3%
CCC(=NO)C(C)=Cc1ccc(F)c(C)c1: -18.9%
O=C(NNS(=O)(=O)c1ccccc1)c1cc(-c2ccnnc2)ccc1F: 80.2%
CN(C)CC#Cc1ccc(OCCCc2sc(N3CCc4cccc(C(=O)Nc5nc6ccccc6s5)c4C3)nc2C(=O)O)c(F)c1: -20.2%

Study 4 — organism: Vesicular stomatitis virus; effect on: pseudovirus infection; technique: FDA-approved drug library screen; concentration: concentration not given; setting: VSV-G control pseudotype; relative to: vehicle; endpoint: GFP-positive cells
NC[C@H]1CC[C@H](C(=O)O)CC1: 88.8%
C[C@]12CC[C@@H]3c4ccc(O)cc4CC[C@H]3[C@@H]1CC[C@@H]2OC(=O)CCC1CCCC1: 89%
Cc1cn(-c2cc(NC(=O)c3ccc(C)c(Nc4nccc(-c5cccnc5)n4)c3)cc(C(F)(F)F)c2)cn1: 86.2%
Cl.N=C(N)N: 110%
CC(=O)OCC(=O)[C@@]1(O)[C@H](C)C[C@H]2[C@@H]3CCC4=CC(=O)C=C[C@]4(C)[C@@]3(F)[C@@H](O)C[C@@]21C: 90.7%
COc1nc2ccc(Br)cc2cc1[C@@H](c1ccccc1)[C@@](O)(CCN(C)C)c1cccc2ccccc12: 154%

A few entries again (study 3):
CCC(=NO)C(C)=Cc1ccc(F)c(C)c1: -18.9%
O=C(NNS(=O)(=O)c1ccccc1)c1cc(-c2ccnnc2)ccc1F: 80.2%
